Assay results from different studies.
Protocols differ between the studies behind these lines. ± gives the spread as reported.

SMILES | cell line | test | conditions | IC50
O=C(Nc1ccc(-c2n[nH]c(=S)n2N=Cc2c[nH]c3ccccc23)cc1)c1cccnc1 | RAW264.7 | TNF-α release, inhibitor, ELISA | LPS-stimulated | 34.6 µM
CCCNC(=O)Nc1ccc(S(=O)(=O)Oc2cnccc2Br)cc1 | MOLM-13 | cell growth or viability, MTT | 48 h | 3.8 µM
COc1cc(OC)c(OC)cc1/C=C(\C(=O)c1cc(C)[nH]c(=O)c1C(=O)N1CCCCC1)c1cc(OC)c(OC)cc1OC | A-375 | cell proliferation, MTT | 72 h | > 10 µM
Cn1c(=O)c(/C=C/c2ccccc2Cl)nc2ccccc21 | HeLa 229 | cell growth or viability, MTT | 72 h | 11.8 µM
Nc1ccn([C@@H]2CS[C@H](CO)O2)c(=O)n1 | HepG2.4D14 | cell growth | 96 h | 180.8 ± 0.09 µM
O=c1[nH]nc(-c2nnc(SCc3ccccc3)o2)c2ccccc12 | WI-38 | cell growth or viability, MTT | 48 h | 42.2 µM
CC(C)/C=C/c1c(O)cc(/C=C/c2ccc(O)c(O)c2)cc1O | HL-60 | reactive oxygen species, inhibitor, fluorescence |  | 0.45 µg/mL
CCCS(=O)(=O)Nc1ccc(F)c(C(=O)c2c[nH]c3ncc(-c4ccc(Cl)cc4)cc23)c1F | MEF | cell growth or viability, ATP luminescence | 72 h | 25 µM
CCCNC(=O)Nc1ccc(S(=O)(=O)Oc2cccnc2Br)cc1 | MOLM-13 | cell growth or viability, MTT | 48 h | 5 µM
Cc1ccc(NC(=O)CSc2nnc(-c3ccc(NC(=O)c4cccnc4)cc3)n2N)cc1 | RAW264.7 | IL-6 release, inhibitor, ELISA | LPS-stimulated | 11.1 µM
O=c1[nH]cc(F)c(=O)[nH]1 | SH-SY5Y | cell growth or viability, MTT | 72 h | 107 µM
COc1cc(OC)c2cc(C(=O)NCc3ccc(Br)cc3)cc(O)c2c1 | C26, HepG2, MCF7 | cytotoxicity, MTT | range over three cell lines | 14.5 to 25.1 µM
O=C1C(n2nc(-c3c(O)c4ccccc4oc3=O)cc2-c2ccc(Cl)cc2)c2ccccc2N1Cc1ccccc1 (stereo not shown) | A-375 | cytotoxicity, SRB | 72 h | 4.6 µM
Cc1ccc(C)c(NC(=O)CSc2nnc(-c3ccc(NC(=O)c4cccnc4)cc3)n2N)c1 | RAW264.7 | NO release, inhibitor, Griess | LPS-stimulated | 9.58 µM
CC(=O)O[C@H]1C(=O)[C@@]2(C)[C@H]([C@H](OC(=O)c3ccccc3)[C@]3(O)C[C@H](OC(=O)[C@H](O)[C@@H](NC(=O)c4ccccc4)c4ccccc4)C(C)=C1C3(C)C)[C@]1(OC(C)=O)CO[C@@H]1C[C@@H]2O | HeLa transfected with βIII-tubulin | cell growth, SRB |  | 0.0092 ± 0.0002 µM
CCc1ccc(Nc2c(F)cc3c(=O)c(C(=O)O)cn(C4CC4)c3c2[N+](=O)[O-])cc1 | Caco-2 | cell growth or viability, SRB | 72 h | 828 µg/mL
O=C(CSc1nnc(-c2ccc(NC(=O)c3cccnc3)cc2)o1)Nc1ccc([N+](=O)[O-])cc1 | RAW264.7 | reactive oxygen species, inhibitor, fluorescence | LPS-stimulated | 0.03 µM
Cc1cc(C)n(C(N)=S)n1.Cc1ccc(C(C)C)cc1.[Cl][Ru][Cl] | WM-115 | cell growth or viability, MTT | 48 h | 60.2 µM
[NH2][Pt]12([NH2])([O]C(=O)CC(=O)[O]1)[O]C(=O)CC(=O)[O]2 | SW480 | cell viability, MTT | 96 h | > 200 µM
O=C1Nc2ccc(Br)cc2C1n1nc(-c2c(O)c3ccccc3oc2=O)cc1-c1ccc(Br)cc1 (stereo not shown) | A-375 | cell growth or viability, SRB | 72 h | 7.32 µM
N=C(N)NCCC[C@H](NC(=O)[C@H](Cc1c[nH]c2ccccc12)NC(=O)[C@H](CCC(N)=O)NC(=O)[C@H](Cc1c[nH]c2ccccc12)NC(=O)[C@H](CCCNC(=N)N)NC(=O)[C@H](Cc1c[nH]c2ccccc12)NC(=O)[C@H](CCC(N)=O)NC(=O)[C@H](Cc1c[nH]c2ccccc12)NC(=O)[C@@H](N)CCCNC(=N)N)C(N)=O | Caco-2 | cell growth or viability, MTT |  | 86 µM
Cc1cc(O)c2c(c1)C(=O)c1cc(O)cc(O)c1C2=O | U-937 | cell growth or viability, ATP luminescence | 24 h | 7 µM

Repeated from above:
SMILES | cell line | test | conditions | IC50
Cc1cc(O)c2c(c1)C(=O)c1cc(O)cc(O)c1C2=O | U-937 | cell growth or viability, ATP luminescence | 24 h | 7 µM
CCCS(=O)(=O)Nc1ccc(F)c(C(=O)c2c[nH]c3ncc(-c4ccc(Cl)cc4)cc23)c1F | MEF | cell growth or viability, ATP luminescence | 72 h | 25 µM
Cc1cc(C)n(C(N)=S)n1.Cc1ccc(C(C)C)cc1.[Cl][Ru][Cl] | WM-115 | cell growth or viability, MTT | 48 h | 60.2 µM
